# Experimental data collected from several papers.
# Parts stem from different laboratories: compare values within a part only. Values joined by “and” are separate records of one study, mostly repeats; a detail may differ.
# Sequence of UniProt P18825 (whole entry, looked up): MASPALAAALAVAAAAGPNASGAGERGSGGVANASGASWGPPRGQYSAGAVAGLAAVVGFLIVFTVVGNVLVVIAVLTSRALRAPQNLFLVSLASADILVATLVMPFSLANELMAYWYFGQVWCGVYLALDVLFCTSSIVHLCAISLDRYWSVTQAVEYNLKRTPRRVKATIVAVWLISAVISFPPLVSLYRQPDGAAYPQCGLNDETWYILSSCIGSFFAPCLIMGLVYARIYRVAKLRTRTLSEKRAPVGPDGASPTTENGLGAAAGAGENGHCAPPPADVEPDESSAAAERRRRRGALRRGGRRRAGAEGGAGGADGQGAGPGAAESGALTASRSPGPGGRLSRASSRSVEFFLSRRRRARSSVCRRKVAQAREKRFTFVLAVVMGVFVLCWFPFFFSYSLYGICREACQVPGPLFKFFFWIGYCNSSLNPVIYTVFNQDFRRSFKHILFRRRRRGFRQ
# Sequence of UniProt Q9H0K1 (whole entry, looked up): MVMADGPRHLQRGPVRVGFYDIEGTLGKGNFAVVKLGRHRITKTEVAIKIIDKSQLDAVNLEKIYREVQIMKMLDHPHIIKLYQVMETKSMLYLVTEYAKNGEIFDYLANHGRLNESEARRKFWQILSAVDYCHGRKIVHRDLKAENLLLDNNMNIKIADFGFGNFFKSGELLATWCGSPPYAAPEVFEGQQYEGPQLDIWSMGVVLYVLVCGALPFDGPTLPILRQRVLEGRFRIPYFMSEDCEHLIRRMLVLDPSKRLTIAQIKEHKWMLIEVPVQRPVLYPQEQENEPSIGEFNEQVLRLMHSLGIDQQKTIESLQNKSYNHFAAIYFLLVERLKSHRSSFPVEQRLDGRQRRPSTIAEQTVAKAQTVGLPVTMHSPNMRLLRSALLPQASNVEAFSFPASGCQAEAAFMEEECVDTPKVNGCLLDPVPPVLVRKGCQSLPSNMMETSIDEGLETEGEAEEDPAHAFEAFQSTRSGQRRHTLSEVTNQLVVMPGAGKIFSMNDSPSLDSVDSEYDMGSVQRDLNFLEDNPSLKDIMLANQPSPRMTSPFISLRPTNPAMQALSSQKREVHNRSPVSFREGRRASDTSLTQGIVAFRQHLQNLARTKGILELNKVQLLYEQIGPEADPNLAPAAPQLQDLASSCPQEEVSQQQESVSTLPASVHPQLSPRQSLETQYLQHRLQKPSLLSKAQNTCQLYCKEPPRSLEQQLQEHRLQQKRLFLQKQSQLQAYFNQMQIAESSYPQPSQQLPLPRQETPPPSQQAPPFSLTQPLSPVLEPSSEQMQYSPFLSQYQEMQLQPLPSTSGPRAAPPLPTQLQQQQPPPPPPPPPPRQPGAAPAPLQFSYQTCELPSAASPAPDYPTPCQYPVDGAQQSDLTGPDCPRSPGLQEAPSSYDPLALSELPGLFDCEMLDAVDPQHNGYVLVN
# Sequence of UniProt Q5BJF2 (whole entry, looked up): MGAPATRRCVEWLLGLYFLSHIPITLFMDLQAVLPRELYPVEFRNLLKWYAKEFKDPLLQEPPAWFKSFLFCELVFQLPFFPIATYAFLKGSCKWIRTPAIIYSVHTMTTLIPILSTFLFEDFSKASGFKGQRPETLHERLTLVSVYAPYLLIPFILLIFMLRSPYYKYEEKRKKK
# Sequence of UniProt P08069 (whole entry, looked up): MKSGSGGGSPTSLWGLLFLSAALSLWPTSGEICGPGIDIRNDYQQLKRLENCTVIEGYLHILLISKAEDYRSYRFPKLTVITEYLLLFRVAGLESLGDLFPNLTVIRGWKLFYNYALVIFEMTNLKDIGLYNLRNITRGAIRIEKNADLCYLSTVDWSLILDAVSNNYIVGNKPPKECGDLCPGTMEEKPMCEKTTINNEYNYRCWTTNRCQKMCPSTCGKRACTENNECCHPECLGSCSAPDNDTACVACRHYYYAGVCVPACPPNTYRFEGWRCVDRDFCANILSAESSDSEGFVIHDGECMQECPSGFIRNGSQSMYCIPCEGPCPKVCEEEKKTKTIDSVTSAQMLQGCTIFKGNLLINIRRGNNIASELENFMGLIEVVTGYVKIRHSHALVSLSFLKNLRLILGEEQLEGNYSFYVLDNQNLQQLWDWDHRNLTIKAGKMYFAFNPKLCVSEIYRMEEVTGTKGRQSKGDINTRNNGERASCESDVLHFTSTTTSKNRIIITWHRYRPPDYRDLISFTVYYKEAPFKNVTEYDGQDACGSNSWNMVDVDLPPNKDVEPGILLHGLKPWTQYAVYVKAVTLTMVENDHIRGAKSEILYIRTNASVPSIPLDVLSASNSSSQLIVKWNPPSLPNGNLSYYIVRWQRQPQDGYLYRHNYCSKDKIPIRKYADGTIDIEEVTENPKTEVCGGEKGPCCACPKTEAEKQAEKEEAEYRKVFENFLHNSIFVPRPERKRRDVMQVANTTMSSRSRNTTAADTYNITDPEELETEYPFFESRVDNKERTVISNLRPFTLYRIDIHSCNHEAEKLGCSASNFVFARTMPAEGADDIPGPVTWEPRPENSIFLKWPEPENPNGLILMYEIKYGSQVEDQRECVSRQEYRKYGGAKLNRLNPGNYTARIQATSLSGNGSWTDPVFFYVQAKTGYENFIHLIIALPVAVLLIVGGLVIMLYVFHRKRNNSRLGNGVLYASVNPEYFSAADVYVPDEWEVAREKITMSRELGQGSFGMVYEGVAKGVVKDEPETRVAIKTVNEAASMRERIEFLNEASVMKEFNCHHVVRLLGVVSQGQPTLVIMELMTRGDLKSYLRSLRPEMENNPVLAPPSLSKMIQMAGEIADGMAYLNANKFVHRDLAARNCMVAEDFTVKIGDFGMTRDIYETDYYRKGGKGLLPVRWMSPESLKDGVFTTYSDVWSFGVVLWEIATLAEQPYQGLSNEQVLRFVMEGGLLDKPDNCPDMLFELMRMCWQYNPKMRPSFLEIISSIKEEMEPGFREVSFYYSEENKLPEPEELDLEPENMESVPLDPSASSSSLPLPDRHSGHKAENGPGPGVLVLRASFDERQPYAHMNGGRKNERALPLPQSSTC
# Sequence of UniProt Q00535 (whole entry, looked up): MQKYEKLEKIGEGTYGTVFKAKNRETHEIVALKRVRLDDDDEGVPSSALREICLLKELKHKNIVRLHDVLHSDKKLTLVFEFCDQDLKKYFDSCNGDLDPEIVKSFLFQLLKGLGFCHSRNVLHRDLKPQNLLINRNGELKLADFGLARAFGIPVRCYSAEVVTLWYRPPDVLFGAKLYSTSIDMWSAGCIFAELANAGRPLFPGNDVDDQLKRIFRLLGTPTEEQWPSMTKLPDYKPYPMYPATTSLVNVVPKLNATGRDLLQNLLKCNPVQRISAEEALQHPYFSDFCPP
# Sequence of UniProt P08912 (whole entry, looked up): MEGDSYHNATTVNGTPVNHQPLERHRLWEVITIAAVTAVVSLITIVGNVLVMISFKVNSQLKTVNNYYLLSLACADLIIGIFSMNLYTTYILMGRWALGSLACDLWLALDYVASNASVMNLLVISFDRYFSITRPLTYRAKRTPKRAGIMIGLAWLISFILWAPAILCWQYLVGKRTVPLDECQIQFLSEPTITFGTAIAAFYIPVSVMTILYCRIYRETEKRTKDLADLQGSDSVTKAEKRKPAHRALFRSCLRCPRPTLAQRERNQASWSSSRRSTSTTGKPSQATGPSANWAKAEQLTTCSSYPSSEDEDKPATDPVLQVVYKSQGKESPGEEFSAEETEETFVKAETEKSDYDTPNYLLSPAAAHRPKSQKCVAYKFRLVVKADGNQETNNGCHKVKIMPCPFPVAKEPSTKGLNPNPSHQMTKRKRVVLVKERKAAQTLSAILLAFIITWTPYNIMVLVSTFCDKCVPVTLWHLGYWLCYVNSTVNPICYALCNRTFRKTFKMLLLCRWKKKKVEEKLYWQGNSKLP
# Sequence of UniProt P35462 (whole entry, looked up): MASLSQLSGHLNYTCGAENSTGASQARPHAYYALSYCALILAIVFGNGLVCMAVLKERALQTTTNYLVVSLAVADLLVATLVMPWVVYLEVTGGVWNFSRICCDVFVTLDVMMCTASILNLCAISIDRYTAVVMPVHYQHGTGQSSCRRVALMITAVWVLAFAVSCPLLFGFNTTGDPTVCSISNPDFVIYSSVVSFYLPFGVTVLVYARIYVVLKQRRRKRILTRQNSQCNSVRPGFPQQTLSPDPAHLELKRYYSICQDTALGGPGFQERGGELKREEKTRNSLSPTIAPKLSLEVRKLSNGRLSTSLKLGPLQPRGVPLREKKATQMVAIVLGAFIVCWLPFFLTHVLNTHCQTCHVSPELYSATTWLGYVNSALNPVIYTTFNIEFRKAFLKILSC
# Sequence of UniProt P51812 (whole entry, looked up): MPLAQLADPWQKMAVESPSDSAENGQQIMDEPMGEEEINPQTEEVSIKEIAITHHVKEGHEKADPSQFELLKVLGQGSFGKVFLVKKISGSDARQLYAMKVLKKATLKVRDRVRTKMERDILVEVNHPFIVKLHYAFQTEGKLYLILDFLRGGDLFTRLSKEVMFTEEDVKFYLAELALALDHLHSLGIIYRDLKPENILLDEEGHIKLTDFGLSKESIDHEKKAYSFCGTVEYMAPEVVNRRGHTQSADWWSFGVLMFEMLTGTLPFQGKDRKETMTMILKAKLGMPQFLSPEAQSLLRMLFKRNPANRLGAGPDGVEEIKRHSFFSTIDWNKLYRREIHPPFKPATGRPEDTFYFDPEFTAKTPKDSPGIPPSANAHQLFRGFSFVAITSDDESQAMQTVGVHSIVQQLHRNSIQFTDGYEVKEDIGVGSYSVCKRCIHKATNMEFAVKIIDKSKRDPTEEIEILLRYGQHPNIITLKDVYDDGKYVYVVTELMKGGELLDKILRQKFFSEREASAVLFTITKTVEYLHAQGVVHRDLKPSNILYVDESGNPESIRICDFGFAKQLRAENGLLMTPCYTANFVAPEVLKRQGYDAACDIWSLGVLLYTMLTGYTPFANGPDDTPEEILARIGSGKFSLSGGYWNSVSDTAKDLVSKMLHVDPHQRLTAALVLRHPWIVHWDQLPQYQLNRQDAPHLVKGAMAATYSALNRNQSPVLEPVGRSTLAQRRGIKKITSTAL

# Study 1
# Target: TAR DNA-binding protein 43, full length, His tag (TARDBP, Homo sapiens, UniProt Q13148, residues 1-414)
# Method: RNA Bind-n-Seq
# Form: RNA
# Sample: in vitro
# Tested at: 20 nM
# Setting: 6-mer, flanks averaged, single round
# With: 150 mM KCl
# Relative to: input library
# Direction: higher = stronger binding
Oligonucleotide,6-mer enrichment (R)
GUCACG,0.964
GUGUGG,3.55
GAGAAU,0.975
AUAGAG,0.98
AGCAGA,0.899
CUGGAA,0.821
AUUAUC,0.544
CGUUUC,0.578

# Study 2
# Substance: HSPD1 (Homo sapiens, UniProt P10809)
# Method: cross-linking MS
# Sample: cells
# With: BSPNO
partner,cross-linked residues
"MDH2 (Homo sapiens, UniProt P40926)",K133 to K157
"PDRG1 (Homo sapiens, UniProt Q9NUG6)",K58 to K36
"IKBKE (Homo sapiens, UniProt Q14164)",K292 to K677
"TST (Homo sapiens, UniProt Q16762)",K196 to V2
"WDR35 (Homo sapiens, UniProt Q9P2L0)",K133 to M1

# Study 3
# SMILES: Cc1cc(NC(=O)c2cccc(S(F)(F)(F)(F)F)c2)cc(-n2ccn3nc(-c4cccnc4)cc23)c1
# Effect on: ligand displacement
# Method: radioligand
# Tested at: 10 µM
target,inhibition [%]
"Beta-3 adrenergic receptor (ADRB3, Homo sapiens, UniProt P13945)",14.3
"Beta-1 adrenergic receptor (ADRB1, Homo sapiens, UniProt P08588)",-11.7
"Muscarinic acetylcholine receptor M5 (CHRM5, Homo sapiens, UniProt P08912)",-4.95
"Alpha-2C adrenergic receptor (ADRA2C, Homo sapiens, UniProt P18825)",3.16
"Sigma intracellular receptor 2 (TMEM97, Homo sapiens, UniProt Q5BJF2)",34.6
"D(3) dopamine receptor (DRD3, Homo sapiens, UniProt P35462)",-7.82

# Study 4
# SMILES: CCN1/C(=C/C(C)=O)Sc2ccc(OC)cc21
# Effect on: enzyme activity
# Action: inhibitor
# Tested at: 0.5 µM
# Relative to: control
target,remaining activity [%]
"Serine/threonine-protein kinase PAK 5 (PAK5, Homo sapiens, UniProt Q9P286)",84.7
"Protein kinase C zeta type (PRKCZ, Homo sapiens, UniProt Q05513)",98
"Serine/threonine-protein kinase MARK1 (MARK1, Homo sapiens, UniProt Q9P0L2)",91
"Casein kinase I isoform delta (CSNK1D, Homo sapiens, UniProt P48730)",54.2
"Insulin-like growth factor 1 receptor (IGF1R, Homo sapiens, UniProt P08069)",98.3
"Calcium/calmodulin-dependent protein kinase type 1 (CAMK1, Homo sapiens, UniProt Q14012)",88.5
"Dual specificity protein kinase CLK2 (CLK2, Homo sapiens, UniProt P49760)",25.9
"Serine/threonine-protein kinase PAK 4 (PAK4, Homo sapiens, UniProt O96013)",108
"Calcium/calmodulin-dependent protein kinase kinase 1 (CAMKK1, Homo sapiens, UniProt Q8N5S9)",105
"Serine/threonine-protein kinase SIK2 (SIK2, Homo sapiens, UniProt Q9H0K1)",116
"Cyclin-dependent kinase 5, with p35 (CDK5, Homo sapiens, UniProt Q00535)",91.1
"Ephrin type-A receptor 2 (EPHA2, Homo sapiens, UniProt P29317)",99.1
"Ribosomal protein S6 kinase alpha-3 (RPS6KA3, Homo sapiens, UniProt P51812)",102
"Serine/threonine-protein kinase PAK 6 (PAK6, Homo sapiens, UniProt Q9NQU5)",95.6
"Maternal embryonic leucine zipper kinase (MELK, Homo sapiens, UniProt Q14680)",94.6
"Ephrin type-B receptor 3 (EPHB3, Homo sapiens, UniProt P54753)",90.3
"Ribosomal protein S6 kinase beta-2 (RPS6KB2, Homo sapiens, UniProt Q9UBS0)",107

# Other studies, line by line
Compound,target or system,test,test system,setting,scale,quantity,value
COc1ccc(-c2c(Nc3ccccn3)[nH]c3c(C4=CCCCC4)c(-c4ccccc4)nn3c2=O)cc1,,immunohistochemistry,"human, tumour biopsy","200 mg twice daily, cycle 1 day 28",direction not given,SDMA H-score,180
CCOC(=O)[C@@H]1CSCC(=O)N[C@@H](CC)C(=O)N(C)[C@@H](C)C(=O)N[C@@H](CC(C)C)C(=O)N2CCC[C@@H]2C(=O)N(CC(C)C)CC(=O)N[C@H](CC(C)C)C(=O)N(C)[C@H](C)C(=O)N[C@@H](CC(C)C)C(=O)N1C,,,hydrocarbon/water,,,logD,0.816
c1ccc2c(-c3nn4c(-c5ccncc5)nnc4s3)c[nH]c2c1,HEK293T ATF4-firefly luciferase reporter,"integrated stress response, item: ATF4",,"1 µM, without ISRIB",relative to: DMSO,reporter signal,127% and 125% and 111% and 121% and 120% and 129% and 122%

# Excerpt of the above (study 4):
target,remaining activity [%]
"Protein kinase C zeta type (PRKCZ, Homo sapiens, UniProt Q05513)",98
"Ephrin type-B receptor 3 (EPHB3, Homo sapiens, UniProt P54753)",90.3
"Serine/threonine-protein kinase PAK 4 (PAK4, Homo sapiens, UniProt O96013)",108
"Casein kinase I isoform delta (CSNK1D, Homo sapiens, UniProt P48730)",54.2
